# Results collected from several papers.
# Each line is one published result; not all experiments were run side by side.
Structure (SMILES),assay,system,conditions,measurement,result
CNC(=O)c1ccc(-c2cnc3ncc(Cc4ccc5ncccc5c4)n3n2)cc1F,measured: Hypoalbuminemia,cancer patients,"oral, 600 mg twice daily, all expansion cohorts, grade 3-4",patients with adverse event,0%
C=CC(=O)NC1CCN(c2ncc3ncnc(Nc4ccc(Oc5ccc6c(c5)ncn6C)c(C)c4)c3n2)CC1,,male patients,"oral, dose not given, on-treatment adverse events",patients with ALT increased,0%
C[C@@H](c1ccc2nccn2c1)n1nnc2ncc(-c3cnn(C)c3)nc21,measured: treatment-related grade ≥3 Rash,EGFR-mutant MET-altered NSCLC,"oral, dose not given, all",patients with adverse events,1%
CCOc1c([C@H](C)n2nc(C)c3c(N)ncnc32)cc(Cl)c(F)c1[C@@H]1CNC(=O)C1,measured: QTcF ≤450 ms,previously treated B-cell malignancy,"oral, 10 mg once daily, overall population",patients,100%
CNC(=O)c1cc(Oc2ccc(NC(=O)Nc3cc(C(C)(C)C)nn3-c3ccc4ncccc4c3)c(F)c2)ccn1,,patients,"oral, dose not given, cycles 1 and 2, High AUC subgroup",patients with grade 3 cardiac disorders,6%
Cc1cc(NC2CCN(C(=O)OC3CCN(C(=O)/C=C/CN(C)C)C3)CC2)n2ncc(C(C)C)c2n1 (stereo not drawn),"Phase I dose escalation CTCAE v4.0, measured: Vomiting",patients with advanced solid tumours,"dose not given, TIW dosing any grade",patients with adverse event,18%
CCO[C@H]1CCN(Cc2c(OC)cc(C)c3[nH]ccc23)[C@H](c2ccc(C(=O)O)cc2)C1,measured: Flatulence,"PNH patients, active haemolysis","oral, 100 mg twice daily, extension phase",patients with adverse event,0%
C[C@@H](Nc1cc(F)cc(F)c1)c1cc(C(=O)N(C)C)cc2c(=O)cc(N3CCOCC3)oc12,measured: Chills,advanced solid tumour patients,"oral, dose not given, dose expansion",patients discontinuing for AE,0%
O=C(Nc1nc2cccc(-c3ccc(CN4CCS(=O)(=O)CC4)cc3)n2n1)C1CC1,measured: abdominal pain upper,rheumatoid arthritis patients,"oral, 100 mg twice daily, 4 weeks",patients with TEAE,0%
COc1cc(Nc2ncc3c(n2)-c2ccc(Cl)cc2C(c2c(F)cccc2OC)=NC3)ccc1C(=O)O,"measured: Hypoxia, grade 3","cancer patients, phase 1/2","oral, dose not given, with: pembrolizumab",patients with adverse event,4%
COc1ccc([C@@H](O)c2cc(-c3ncnc4cc(N5CCOCC5)ccc34)c(F)cc2Cl)nn1,measured: Proctalgia,locally advanced rectal cancer patients,"dose not given, all dose groups, with: capecitabine plus radiotherapy",patients with TEAE,37%
Cc1cc(-c2nnc(N)nc2-c2ccc(F)cc2)cc(Cl)n1,measured: Colitis,"IO-naive mCRPC patients, male","oral, dose not given, treatment-related, grade ≥3",patients with immune-mediated AE,0%
